Experimental data of several laboratories.
Each numbered part is a random draw from the data of one study; scales do not carry over between parts.

Set 1 — method: protein binding microarray; molecule type: double-stranded DNA, one strand shown; matrix: in vitro; concentration: not given; baseline: not given; direction: higher = stronger binding
Target: Histone acetyltransferase KAT6A, winged helix 1, GST fusion (KAT6A, Homo sapiens, UniProt Q92794, residues 1-85)
Notes: 8-mer, flanks averaged, mean of 2 arrays, mostly near background
Target sequence (chain): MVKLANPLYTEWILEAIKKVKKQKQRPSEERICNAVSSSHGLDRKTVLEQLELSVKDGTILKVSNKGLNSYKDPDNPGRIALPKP
Oligonucleotide	E-score
ATGAGTAG	-0.133
ACCGAGAA	-0.0348
ACCGGCGT	0.347
GGTTGATA	-0.0836
ACAATCGG	0.133
TCCCAACA	-0.172
ATCTGGGC	-0.013
ATTGACGC	-0.0392
GCAGATTA	-0.0731
GCCCTGTA	0.0118
GCTCATTA	0.00741
GATGTAAA	-0.00789
ACGCAGTA	-0.0151
GCTTTTCC	0.088
TGTCGGAA	0.0816
AATCTGAC	-0.163
TACGTCGA	-0.221
ACATCCAA	-0.142

Set 2 — method: protein-binding microarray; molecule type: double-stranded DNA, one strand shown; matrix: in vitro; concentration: not given; direction: higher = stronger binding
Target: Protein max, full length (MAX, Homo sapiens, UniProt P61244-2, residues 1-151)
Notes: k-mer, scored over probes, only values ≥0.25
Oligonucleotide	E-score
ACGCTGCC	0.299
AACTCACG	0.279
CATGTGAG	0.457
CACATGAG	0.411
AAGCACGA	0.335
CCCTCACG	0.287
ACACGCGC	0.439
CACACATG	0.447
ACGCGCTC	0.251
AAACGTGC	0.416
CGTGGCGC	0.378
CCACCTGC	0.419
AGCACGCT	0.429
TGCACGCA	0.34
AGTGTGCA	0.254
AACCAACG	0.254
CACGCGTC	0.444
CACGGGCA	0.283
GCACACAC	0.264
ACCATGCT	0.445
CTCGCACA	0.256
CGTGTCTC	0.397
AAGTCATG	0.297
GCGTGACC	0.42
GCCATGCA	0.315

Set 3 — method: protein-binding microarray; molecule type: hairpin DNA; matrix: in vitro; concentration: not given; baseline: not given; direction: higher = stronger binding
Target: Homeobox protein Hox-B13, full length (HOXB13, Homo sapiens, UniProt Q92826, residues 1-284)
UniProt Q92826, sequence (whole entry, looked up): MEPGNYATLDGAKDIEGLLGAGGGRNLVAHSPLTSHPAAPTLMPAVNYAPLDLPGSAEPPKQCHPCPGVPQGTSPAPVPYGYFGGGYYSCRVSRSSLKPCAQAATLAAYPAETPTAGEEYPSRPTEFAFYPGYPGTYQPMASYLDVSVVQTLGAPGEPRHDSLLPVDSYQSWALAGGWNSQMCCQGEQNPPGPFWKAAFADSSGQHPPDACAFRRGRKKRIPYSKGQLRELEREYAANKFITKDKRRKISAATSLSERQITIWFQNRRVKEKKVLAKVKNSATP
Notes: whole hairpin DNA, median over replicate spots
Oligonucleotide	median fluorescence [a.u.]
GAGGCCGTTTTATTGGGGCCTCCTGGCCCCAATAAAACGGCCTCACACTC	5320
GAGGCCGTTTTACGGGGGCCTCCTGGCCCCCGTAAAACGGCCTCACACTC	4670
GAGGCCTTTTTATTGGGGCCTCCTGGCCCCAATAAAAAGGCCTCACACTC	4880
GAGGCCCGTTTACGAGGGCCTCCTGGCCCTCGTAAACGGGCCTCACACTC	5010
GAGGCCGTCTTATTGGGGCCTCCTGGCCCCAATAAGACGGCCTCACACTC	4270
GAGGCCGTTGTACGAGGGCCTCCTGGCCCTCGTACAACGGCCTCACACTC	4100
GAGGCCGTTTTAATGGGGCCTCCTGGCCCCATTAAAACGGCCTCACACTC	4810
GAGGCCGTTTTACTAGGGCCTCCTGGCCCTAGTAAAACGGCCTCACACTC	4480
GAGGCCGTTTTATCGGGGCCTCCTGGCCCCGATAAAACGGCCTCACACTC	4340
GAGGCCGTTTTCGTGGGGCCTCCTGGCCCCACGAAAACGGCCTCACACTC (5mC at 32)	3990
GAGGCCGGTTTACGAGGGCCTCCTGGCCCTCGTAAACCGGCCTCACACTC (5mC at 37)	5430
GAGGCCGTTCGACGAGGGCCTCCTGGCCCTCGTCGAACGGCCTCACACTC (5mC at 10 34)	4030
GAGGCCGTTTTATTGCGGCCTCCTGGCCGCAATAAAACGGCCTCACACTC (5mC at 16 28)	4800
GAGGCCGTTTCGCGAGGGCCTCCTGGCCCTCGCGAAACGGCCTCACACTC	4070
GAGGCCGTTTTACGAGGGCCTCCTGGCCCTCGTAAAACGGCCTCACACTC (5mC at 28)	5140
GAGGCCGTTTTACGAGGGCCTCCTGGCCCTCGTAAAACGGCCTCACACTC (5mC at 13 31)	5560
GAGGCCGTCGTACGAGGGCCTCCTGGCCCTCGTACGACGGCCTCACACTC (5mC at 9 35)	3910
GAGGCCGCGTTACGAGGGCCTCCTGGCCCTCGTAACGCGGCCTCACACTC (5mC at 8)	4520
GAGGCCGTTTTACGAGCGCCTCCTGGCGCTCGTAAAACGGCCTCACACTC (5mC at 17)	5780
GAGGCCGTTGTACGAGGGCCTCCTGGCCCTCGTACAACGGCCTCACACTC (5mC at 35)	4200
GAGGCCGTTTTATTGGCGCCTCCTGGCGCCAATAAAACGGCCTCACACTC	5030
GAGGCCGTTTTATTCGGGCCTCCTGGCCCGAATAAAACGGCCTCACACTC (5mC at 29)	4230
GAGGCCGTTTTGTTGGGGCCTCCTGGCCCCAACAAAACGGCCTCACACTC	4150
GAGGCCCGTTTACGAGGGCCTCCTGGCCCTCGTAAACGGGCCTCACACTC (5mC at 7)	5000

Set 4 — method: RNA Bind-n-Seq; molecule type: RNA; matrix: in vitro; concentration: 365 nM; baseline: no-protein control; direction: higher = stronger binding
Target: RNA binding protein fox-1 homolog 2, RRM domain, GST-SBP tag (RBFOX2, Homo sapiens, UniProt O43251-10, residues 100-194)
Notes: natural RNA segment, single round, ends assumed
All sequences stand within: GGGAGUUCUACAGUCCGACGAUC … UGGAAUUCUCGGGUGCCAA
Residues (chain): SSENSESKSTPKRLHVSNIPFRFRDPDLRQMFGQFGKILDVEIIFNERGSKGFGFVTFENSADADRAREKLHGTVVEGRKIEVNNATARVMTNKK
Oligonucleotide	RBNS enrichment (R)
GAUCACAAAAACAUGGUGGGUCCAUGGGCAGAGCCCAAGGGAAUUCGGUGUGCACCAGGGUUGACCCCAGAGGAUUGCUGCCCCAUCAGUGCUCCCUCACAUGUCAGUAC	0.33
UGCCCUCUUCCCUCUUUACACAUCAGGUGUCUCUGGCACAGGACUUGGCACUAAGCUCCAUGCUGAGACACCAGGCUAUGUGGGCCCCCACCUUGUUUCCCAGCCUGCAC	0.488
GUUUGAGAGUAUAUGUUAAUGACUAUUUUUUUUAAAAAUGUUCUAUUGAAACCAGUGUAACAGCACAAAGAGCUCUAAUGUGUAACACUUCCUCUGAAAUGGAUAUAAAG	0.533
UUCUGUUUGGCUUUGGCUUUUUGUUGGGGUGAGAGCCCUAGCUCCCAGCUCCCCUCACUAUCUUUUGACACUAAGAUGGAAGGUUACUAAGUUGCAGGAACAGGAUGAAA	0.247
CAGGGGCCUAGCCCUGGGCAUAUUCAUUUGUUUGCUUCUCUGGGACAGUAUGCCCUGCCUUCCCUGGGCCAAAAGAAAUCCGUGCUGUCACUGAUGCUGGCGAUGAUGCA	0.645
CAAAGAGGUAUAAUGUGGGAUGCACCAAACGAGUGGGACUUUUUCACUCAGACCGAAGCAAGCUGCAGAAGGCAGGGACCACAACCCACAACCGCCGACGGGCCAGCAAG	0.275
GACAGGGAGCUAGAGCCAAGCCCUAGGCUUGAGAGACACCUGCAUCUAUAAUCCCCGCCAAGGAUGCCCACUCACCUCUCUCAUCUGAUCCUCACUCUUUGUGGAAGGGA	0.329
AGGGUACCUUCAGAUGAGAUACCUGCUUGUAUUUUAAGAGAAACAAGUAGCCAAAGAAACUCUGUCACUUUGGUAACACCAGAACUUGCCACAUGUAGCUACUACAGCAA	0.338
CUCCUUGUAUUCCCACUUUCGUAGUCAUUUCGGUUCUGAUCUUGUCAAACCCAGCCUGACCGCUUCUGACGCCGGGAUGGCCUCGUUACUAGACUUUUCUUUUUAAGGAA	0.262
AUGUGGCUGAACAAGCAGGAAGAGUCCUGCUGUGUAAAUUGUAAAUGUCGAGUGCACUUGAUGAAGAAUACCACUCCUUAAAAUGUGUGGAAGAGAGAGAGAGAGACUGA	1.69
AGCUGCAGUCCCCAGGCCAUGAGCCUCCCGGGAAUGUUUAAUAAAGGGCCUGGCCAACUCUCCUCACUGUGUGGGGUGGUCUGUGAAAGAGUGAGAGGAGAGCAUCUCUG	3.07
UAUACAUAUAAUUAUAUACAUAUAUGUAAUCUCAAUUAGGCAAUUUUAAUAGACUUCACAAAAAUAUUUUAAUAAUCAGACUGAGUGCUCUUGUUUUAUAAAUUUCACUG	0.663

Other studies, line by line
Molecule	target	test	system	conditions	scale	endpoint	value
PhoQ, residues 284 288 289 292 302 303 SCKMEA	PhoP, residues 12 14 15 18 19 QQAYL (Escherichia coli, UniProt P23836)	Sort-seq, measured: YFP reporter	E. coli	PhoQ-PhoP variant library, added: 10 µM Mg2+	baseline: high Mg2+ state, higher = stronger signaling	fold induction	17.2

Some of these lines once more (set 3):
Oligonucleotide	median fluorescence [a.u.]
GAGGCCGTCTTATTGGGGCCTCCTGGCCCCAATAAGACGGCCTCACACTC	4270
GAGGCCGTTGTACGAGGGCCTCCTGGCCCTCGTACAACGGCCTCACACTC	4100
GAGGCCGTTTTAATGGGGCCTCCTGGCCCCATTAAAACGGCCTCACACTC	4810
GAGGCCGTTTTACTAGGGCCTCCTGGCCCTAGTAAAACGGCCTCACACTC	4480
GAGGCCGTTTTATCGGGGCCTCCTGGCCCCGATAAAACGGCCTCACACTC	4340
GAGGCCGTTTTCGTGGGGCCTCCTGGCCCCACGAAAACGGCCTCACACTC (5mC at 32)	3990
GAGGCCGGTTTACGAGGGCCTCCTGGCCCTCGTAAACCGGCCTCACACTC (5mC at 37)	5430
GAGGCCGTTCGACGAGGGCCTCCTGGCCCTCGTCGAACGGCCTCACACTC (5mC at 10 34)	4030
GAGGCCGTTTTATTGCGGCCTCCTGGCCGCAATAAAACGGCCTCACACTC (5mC at 16 28)	4800
GAGGCCGTTTCGCGAGGGCCTCCTGGCCCTCGCGAAACGGCCTCACACTC	4070
